Experimental data gathered from unrelated publications.
Lines come from different studies, so protocols differ. Numbers after ± are the reported error.
Cell line: HepG2

SMILES | assay | conditions | scale | measurement | result
CC(=O)c1nn(-c2ccc(Cl)cc2)/c(=N/N=C(\C)c2ccc(NC(=O)c3ccc(Cl)cc3)cc2)s1 | – | 10 µM | – | viability | 7.4%
Nc1ccn([C@H]2CC[C@@H](CO)O2)c(=O)n1 | qPCR | 2.0 µM, 10 days, 1 | relative to: untreated | mitochondrial DNA content | 10 ± 3.8%
COc1ccc(NC(=O)c2c(Nc3ccccc3)sc(C#N)c2NC(=O)CNc2ccc(Cl)cc2)cc1 | annexin V-FITC/PI | concentration not given | – | late apoptotic cells | 7.85 ± 0.95%
COc1ccc(-n2nc(C(C)=O)s/c2=N\N=C(/C)c2ccc(NC(=O)c3ccccc3)cc2)cc1 | – | 10 µM | – | viability | 3.13%
CC(C)(C)c1cc(O)ccc1O | extracellular flux, refers to: reserve respiratory capacity | 1 h, distribution mode 2 | – | point of departure | 14.1 µM
CCOC(=O)c1nn(-c2cccc(Cl)c2)/c(=N/N=C(\C)c2ccc(NC(=O)c3ccccc3)cc2)s1 | MTT | 10 µM | – | cytotoxicity | 97%
O=C(O)Cc1ccccc1Nc1c(Cl)cccc1Cl | protein level, refers to: HIF-1α | 6 h | – | representative mode point of departure | 219 µM
CC(=O)c1nn(-c2ccc(C)cc2)/c(=N/N=C(\C)c2ccc(NC(=O)c3ccccc3)cc2)s1 | MTT | 0.078 µM | – | cytotoxicity | 26.4%
Cc1c(C)c2c(c(C)c1O)CCC(C)(COc1ccc(CC3SC(=O)NC3=O)cc1)O2 (stereo not shown) | high content imaging, refers to: nuclear size | 24 h, distribution mode 1 | – | point of departure | 37.2 µM
COc1ccc(NC(=O)c2c(Nc3ccccc3)sc(C(=O)NN=Cc3ccc(OC)c(O)c3)c2NC(C)=O)cc1 | ELISA | IC50, 24 h | – | active caspase-3 level | 263 ± 16.1 pg/mL

Excerpt of the above:
SMILES | assay | conditions | scale | measurement | result
CCOC(=O)c1nn(-c2cccc(Cl)c2)/c(=N/N=C(\C)c2ccc(NC(=O)c3ccccc3)cc2)s1 | MTT | 10 µM | – | cytotoxicity | 97%
